Measurements collected from several papers.
Numbered parts are unrelated; each lists some results of a single study. Changes are numbered by the printed parent chain.

Study 1
Target: Sal-like protein 4, full length isoform A (SALL4, Homo sapiens, UniProt Q9UJQ4, residues 1-1053)
Chain of UniProt Q9UJQ4 (whole entry, looked up): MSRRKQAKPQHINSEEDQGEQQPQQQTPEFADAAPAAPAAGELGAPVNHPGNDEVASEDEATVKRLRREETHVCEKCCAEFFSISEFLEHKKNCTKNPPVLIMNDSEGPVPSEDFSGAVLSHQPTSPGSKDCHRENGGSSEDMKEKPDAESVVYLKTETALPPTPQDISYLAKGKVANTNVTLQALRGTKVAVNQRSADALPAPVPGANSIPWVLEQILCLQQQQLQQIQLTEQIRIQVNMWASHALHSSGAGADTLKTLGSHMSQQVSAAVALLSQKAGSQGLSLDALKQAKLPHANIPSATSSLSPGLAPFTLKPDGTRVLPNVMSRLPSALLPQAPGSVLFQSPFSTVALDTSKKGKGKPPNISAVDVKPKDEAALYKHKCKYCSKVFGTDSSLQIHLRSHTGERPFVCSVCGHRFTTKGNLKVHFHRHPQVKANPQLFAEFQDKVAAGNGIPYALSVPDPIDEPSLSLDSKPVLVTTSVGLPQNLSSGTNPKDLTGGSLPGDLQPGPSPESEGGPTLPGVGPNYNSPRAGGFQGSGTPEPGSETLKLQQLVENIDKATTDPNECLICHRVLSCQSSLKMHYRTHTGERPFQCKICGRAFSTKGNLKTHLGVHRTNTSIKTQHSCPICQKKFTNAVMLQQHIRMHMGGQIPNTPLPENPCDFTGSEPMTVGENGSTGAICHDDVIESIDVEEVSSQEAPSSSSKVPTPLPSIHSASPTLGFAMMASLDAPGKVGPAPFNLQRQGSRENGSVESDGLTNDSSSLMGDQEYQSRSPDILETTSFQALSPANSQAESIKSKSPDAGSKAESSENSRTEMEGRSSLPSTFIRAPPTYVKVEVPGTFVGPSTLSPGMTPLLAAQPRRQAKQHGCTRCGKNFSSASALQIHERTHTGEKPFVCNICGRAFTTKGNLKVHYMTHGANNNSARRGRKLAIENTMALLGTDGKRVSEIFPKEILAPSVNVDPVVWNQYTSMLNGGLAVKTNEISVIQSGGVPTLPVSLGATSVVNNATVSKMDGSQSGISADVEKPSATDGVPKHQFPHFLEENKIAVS
Method: universal PBM
Molecule type: double-stranded DNA, one strand shown
Sample: in vitro
Concentration: 600 nM
Setting: 8-mer, flanks averaged, mean of replicates
Reading: higher = stronger binding
| Strand | E-score |
| --- | --- |
| CTAGCACC | -0.264 |
| CGGTCAGA | -0.129 |
| ACATGGGC | -0.169 |
| GGGTTAGA | -0.196 |
| CCGGGTCC | -0.443 |
| GTTGAAAA | 0.218 |
| TTACACAA | 0.269 |
| CGATTTCC | -0.143 |
| CTGAAATC | 0.101 |
| CTCGGCCC | -0.339 |
| CAGGTACC | -0.309 |
| TCCTGGCA | -0.0636 |
| TAAAGTAA | 0.295 |
| AACGACTT | 0.0211 |
| AGAGGGCA | -0.168 |
| ATGCACGA | 0.0722 |
| AGACACCG | -0.245 |
| ATGTGCAG | 0.0827 |
| AGGTAGCA | -0.114 |
| ATTCCTCC | 0.0762 |
| CGCGCGTA | -0.321 |
| AGCATACC | 0.0597 |
| CGCCCTCA | -0.206 |
| AACCACTT | 0.0185 |
| CGTCGGAG | -0.222 |

Study 2
Target: RNA binding protein fox-1 homolog 2, RRM domain, GST-SBP tag (RBFOX2, Homo sapiens, UniProt O43251-10, residues 100-194)
Method: RNA Bind-n-Seq
Molecule type: RNA
Sample: in vitro
Concentration: 365 nM
Setting: natural RNA segment, single round, ends assumed
Baseline: no-protein control
Reading: higher = stronger binding
All sequences stand within: GGGAGUUCUACAGUCCGACGAUC … UGGAAUUCUCGGGUGCCAA
Target sequence (chain): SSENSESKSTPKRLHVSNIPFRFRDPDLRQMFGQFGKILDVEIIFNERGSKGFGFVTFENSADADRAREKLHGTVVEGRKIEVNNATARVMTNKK
| Strand | RBNS enrichment (R) |
| --- | --- |
| CAAUAAGCACUACACAUCUGCCACCAACAAUGUUGUUUGCAUUUACCUUACCAAUAUUAAUCCCAGCGUGGUAACUCUGUGUGACCCCGAUAACAUUUUGUAACAUUGUG | 0.526 |
| UUGGAAGCCUUUGAUAGUUACUGCCUACCUUCAAUGGUGAUGAUAACAUUGUGACUCUUACUCGUUUUUGUUGGUUAGCAGAGGUUCCUUUAUAGAGAAAGCCUUCCCUC | 0.406 |
| UAAUUGCAAAGUAGUUCAAAGCAAAGAAAAGCUUACAUUAAUCCCUAGAUUUUAGAACUGUAUGUAGAAUUUUCACAGAAUACAUUGUUAAGCUAACACUUUUAACAACG | 0.523 |
| GGGACCCUCCUCAUACAGCUCGUGCGGAUCUGCAGUGUGUUCUGACUCUAAUGUGACUGUAUAUACUGCUCGGAGUAAGAAUGUGCUAAGAUCAGAAUGCCUGUUCGUGG | 0.776 |
| AGCUCCUUGGAGGCUGGCAGGAGCAGAGAGGGGUGUGUGAGGGAGGAGAGCCUGUCUUGUUGGUGGGACCCUAAUUACCCCUGAGCCUCUCGGGAAUGCUUUUCCAGCAG | 0.833 |
| GUCUUGAAUCUGCCAAUCUGUAUGUUAAAACAGCUGACAGAUUGUAAAGCUAUUGCACUGCGUUGCCCUGGACAAGUCUGAAAUUGGUAUAAAAGACAAGGUGCCCAAGG | 0.562 |
| GCUUAAGCAAGGACAUUAAUCCUACUAGAUGAAGGGGAAGUUGGUUCUGUUGUCUUAAGGGAUGCCCCCUUGUGAUUUUGGUCAACUGAAUGAAAAAGAAAAGAUAGCCU | 0.72 |
| GUUCGUCUUGAAGAAAGCAUUAAGGUAUGCAUGGAGGUGAUUUAUUUUUAAACAUAACACCUAACCUAACAUGGGUAAGAGAGUAUGGAACUAGAUAUGAGCUGUAUAAG | 27.5 |
| CAUCCUCCAGCAGGCUGGCCCCACUCCCUUCCAUCUCCAAGUCUUCUUCCAGAGGAUGCAUUUGGAUCCCAGAGGAGUGUUUUCUGGAAGACAAUCUUUCAACAUCCCUA | 0.39 |
| AAUUCUAAAGUUAGAAGUGUUCUUAAGUUGAUAUUUACUCUCUUGGUCUUGGUAGCCCUAUUAUAUCAUUGCAGACACAGUGUUGUGCAUGUGUGUAUUGUAUAUGUGCA | 36.2 |
| GCUGUUCCAGCUUUGCAUUUCUGUCAAGUAGAGGCGAAUAUAUAAACAGUGUGGUUGAAUACAUUUAAUGCCAGCCAUUGGAAACUAGUUUUAGGCAACCACUCUCAAAA | 0.28 |
| UACUAGACAGAUGGAGAGUGGCUUGGCUGUUUCCCCCUGCAUAUUGGGGUUGAAAACUUAAAUGUGUAGUUCCAGUCCUUCUAUGCAGAGUCUCUCCUGCCCUCCCUCCU | 0.321 |

Study 3
Target: ABI1, truncated, D143A, DHFR fusion (Arabidopsis thaliana)
Method: DHFR PCA, deep sequencing
Sample: yeast
Setting: methotrexate growth selection, single substitutions
Together with: (+)-ABA 0.0091 µM
Baseline: wild-type fitted maximum
Reading: higher = stronger binding
Starting sequence: PYL1, truncated, DHFR fusion (Arabidopsis thaliana); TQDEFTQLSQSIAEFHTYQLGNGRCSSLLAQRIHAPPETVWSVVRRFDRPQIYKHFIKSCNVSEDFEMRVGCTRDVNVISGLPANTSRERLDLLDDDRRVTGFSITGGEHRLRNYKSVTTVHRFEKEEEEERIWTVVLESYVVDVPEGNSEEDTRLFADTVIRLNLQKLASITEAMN; partner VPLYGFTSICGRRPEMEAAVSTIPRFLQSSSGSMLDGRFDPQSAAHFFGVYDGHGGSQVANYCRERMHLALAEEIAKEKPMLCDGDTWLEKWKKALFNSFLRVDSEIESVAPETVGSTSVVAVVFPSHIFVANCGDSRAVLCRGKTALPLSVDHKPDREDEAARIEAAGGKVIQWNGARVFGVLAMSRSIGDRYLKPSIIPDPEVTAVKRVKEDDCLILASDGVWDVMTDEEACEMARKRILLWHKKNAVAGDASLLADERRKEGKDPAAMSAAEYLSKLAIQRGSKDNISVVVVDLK
| Variant | relative binding score [%] |
| --- | --- |
| E67W | -4.67 |
| E139S | 4.9 |
| L93N | -3.56 |
| H16C | 0.18 |
| V76E | -3.17 |
| E174G | -5.57 |
| S87G | 1.32 |
| S150E | 8.37 |
| L29F | -1.31 |
| S26Q | 2.35 |
| N114T | -0.388 |
| E67F | 1.89 |
| L166P | 9.78 |
| D3V | 7.03 |
| I12Q | -4.41 |

Study 4
Target: CCNB1, cyclin fold, Cln2 fusion (human)
Method: yeast growth competition, sequencing
Sample: yeast
Setting: strong parent motif
Baseline: not given
Reading: higher = stronger binding
Starting sequence: BRCA2 docking peptide (human); PSIKRNLLNEFDR; partner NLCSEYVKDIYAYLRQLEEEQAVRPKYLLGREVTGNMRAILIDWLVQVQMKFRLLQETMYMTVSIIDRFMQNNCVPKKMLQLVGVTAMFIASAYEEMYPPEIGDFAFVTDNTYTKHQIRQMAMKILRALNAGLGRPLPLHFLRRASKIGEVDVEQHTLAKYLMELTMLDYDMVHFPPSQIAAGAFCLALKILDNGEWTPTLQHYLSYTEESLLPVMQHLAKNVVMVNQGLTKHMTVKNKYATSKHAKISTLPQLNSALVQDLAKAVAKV
| Variant | normalised enrichment score |
| --- | --- |
| F11Q | 0.337 |
| I3K | 0.619 |
| K4D | 0.68 |
| R13L | 1.53 |
| N6F | 0.911 |
| E10P | 0.432 |
| D12M | 1.66 |
| F11K | -0.312 |
| D12K | 0.937 |
| I3F | 0.267 |
| E10Q | 1.38 |
| R13Y | 2.58 |
| N9S | 2.72 |
| L7V | 0.72 |
| L8G | 0.504 |
| L8E | 1.09 |
| R5F | -2.61 |
| L7K | 0.388 |
| P1S | 2.71 |
| N9Y | 3.25 |
| S2C | 1.98 |
| D12F | 0.433 |
| R5C | 0.576 |
| L7P | 0.208 |
| R5P | -0.1 |

Study 5
Target: Interferon regulatory factor 7, full length, phosphomimetic (IRF7, Homo sapiens, UniProt Q92985, residues 1-503, S471D/S472D/S475D/S476D/S477D/S483D/S484D/S487D)
Method: protein-binding microarray
Molecule type: double-stranded DNA, one strand shown
Sample: in vitro
Concentration: 2200 nM top
Setting: 60-bp whole probe
Together with: salmon DNA 0.4 mg/ml
Baseline: random background probes
Reading: higher = stronger binding
All sequences stand within: GCCTAGCAC … GTCTTGATTCGCTTGACGCTGCTG
Construct (chain): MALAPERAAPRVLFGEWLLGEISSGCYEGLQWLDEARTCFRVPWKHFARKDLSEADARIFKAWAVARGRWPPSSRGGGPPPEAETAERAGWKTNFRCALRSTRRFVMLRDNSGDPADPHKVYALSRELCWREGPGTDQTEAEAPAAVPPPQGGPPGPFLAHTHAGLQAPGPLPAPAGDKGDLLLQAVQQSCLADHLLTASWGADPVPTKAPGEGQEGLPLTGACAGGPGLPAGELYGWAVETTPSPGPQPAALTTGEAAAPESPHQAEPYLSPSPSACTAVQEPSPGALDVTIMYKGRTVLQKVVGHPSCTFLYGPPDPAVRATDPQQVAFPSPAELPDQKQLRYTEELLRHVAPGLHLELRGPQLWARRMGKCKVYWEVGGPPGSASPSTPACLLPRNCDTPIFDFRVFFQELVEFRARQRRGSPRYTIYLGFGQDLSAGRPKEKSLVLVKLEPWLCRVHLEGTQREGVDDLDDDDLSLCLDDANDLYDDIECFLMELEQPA
| Strand | fitted relative affinity |
| --- | --- |
| TTACAACTGGGGACTGGATTAGTGCTA | 0.218 z-score |
| TCATAAATCTTTGTTGGAACTGTGCTA | -0.103 z-score |
| TTCATTTTCTGAATGTCCTCGTGCTAG | 4.34 z-score |
| TCAGTTTTCCTTCATGTACTGTGCTAG | 3.75 z-score |
| GACGATATCAGACTGGATACGTGCTAG | -0.0089 z-score |
| GACGGACTGGGGACTGGGAACGTGCTA | -0.982 z-score |
| CACTCTCTGGGCTGTGGGTTTGTGCTA | 0.268 z-score |
| ATAGATCTCAGTATCGATTAGTGCTAG | 0.399 z-score |
| GACGATATCGGGTATCGAAACGTGCTA | 0.513 z-score |
| GACGATATCAGTCTCGAGCCGTGCTAG | 0.106 z-score |
| GACGATTTCGGGTTTCGCGACGTGCTA | 4.72 z-score |
| TTGGGTTTCCTACTGCTTTAGTGCTAG | 1.41 z-score |
| GGGCATTTGGTTAGCGTATAGTGCTAG | -0.369 z-score |
| GACGAACTGAGACTGGATACGTGCTAG | -0.0178 z-score |
| TTAGATTTCAGTTTCGTTTAGTGCTAG | 8.76 z-score |
| TTAGGTTTGGGTATCGGTTAGTGCTAG | 0.955 z-score |
| TTAGGTATCCTTCTCCTATAGTGCTAG | 1.08 z-score |
| GACGAACTGAGTAACGAGACGTGCTAG | -0.198 z-score |
| GACGGTTTCGACACTGGCGACGTGCTA | 2.5 z-score |
| GACGCTTTCGGTTCCGGGACGTGCTAG | 12.3 z-score |
| TGTGCATGTGTGTTTTCTGCGTGCTAG | 1.27 z-score |
| GACGGTTTCGGTATGGGGACGTGCTAG | 8.32 z-score |
| GACGGTATTGGACTGGGGACGTGCTAG | -0.381 z-score |
| TCATTTCTAAATTCCCTACTGTGCTAG | 1.92 z-score |
| TCAACCCTCCCTCTGTAAGTGTGCTAG | 1.38 z-score |
